Measured values collected from several papers.
Every numbered part comes from another study and shows a few of its results, in no order.

Series 1
Target: Interferon regulatory factor 7, full length, phosphomimetic (IRF7, Homo sapiens, UniProt Q92985, residues 1-503, S101K/S471D/S472D/S475D/S476D/S477D/S483D/S484D/S487D)
Chain of UniProt Q92985 (whole entry, unmodified, looked up): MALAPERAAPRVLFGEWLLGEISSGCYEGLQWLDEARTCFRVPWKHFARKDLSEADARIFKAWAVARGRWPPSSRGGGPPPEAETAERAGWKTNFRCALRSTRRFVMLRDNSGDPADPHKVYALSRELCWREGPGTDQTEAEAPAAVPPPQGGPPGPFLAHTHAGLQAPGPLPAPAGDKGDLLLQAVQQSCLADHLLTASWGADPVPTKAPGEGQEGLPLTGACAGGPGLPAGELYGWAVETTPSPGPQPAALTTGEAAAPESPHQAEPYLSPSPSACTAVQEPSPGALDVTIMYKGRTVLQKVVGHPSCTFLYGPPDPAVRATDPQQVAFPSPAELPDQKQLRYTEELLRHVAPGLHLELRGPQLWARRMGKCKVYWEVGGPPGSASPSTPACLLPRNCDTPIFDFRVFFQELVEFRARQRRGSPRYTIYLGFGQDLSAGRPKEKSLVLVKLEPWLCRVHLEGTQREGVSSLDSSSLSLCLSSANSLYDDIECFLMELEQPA
Technique: protein-binding microarray
Molecule type: double-stranded DNA, one strand shown
Matrix: in vitro
Concentration: 250 nM
Notes: 60-bp whole probe
With: salmon DNA 0.4 mg/ml
Baseline: random background probes
Reading: higher = stronger binding
The log fluorescence of `GCCTAGCACTTAGATTTCAGTATCCATTAGTGCTAGGTCTTGATTCGCTTGACGCTGCTG` is reported as 0.423 z-score.
With `GCCTAGCACAGCTATCACTATTCTAGGGAAGTGCTAGTCTTGATTCGCTTGACGCTGCTG` the log fluorescence was -0.311 z-score.
`GCCTAGCACGACGGTATCGTACTGCTGACGTGCTAGGTCTTGATTCGCTTGACGCTGCTG` gave a log fluorescence of -0.0116 z-score.
For `GCCTAGCACTTAGATCTCTGTATCGATTAGTGCTAGGTCTTGATTCGCTTGACGCTGCTG`, the log fluorescence was 0.236 z-score.

Series 2
Target: Sal-like protein 4, full length isoform A (SALL4, Homo sapiens, UniProt Q9UJQ4, residues 1-1053)
Chain of UniProt Q9UJQ4 (whole entry, looked up): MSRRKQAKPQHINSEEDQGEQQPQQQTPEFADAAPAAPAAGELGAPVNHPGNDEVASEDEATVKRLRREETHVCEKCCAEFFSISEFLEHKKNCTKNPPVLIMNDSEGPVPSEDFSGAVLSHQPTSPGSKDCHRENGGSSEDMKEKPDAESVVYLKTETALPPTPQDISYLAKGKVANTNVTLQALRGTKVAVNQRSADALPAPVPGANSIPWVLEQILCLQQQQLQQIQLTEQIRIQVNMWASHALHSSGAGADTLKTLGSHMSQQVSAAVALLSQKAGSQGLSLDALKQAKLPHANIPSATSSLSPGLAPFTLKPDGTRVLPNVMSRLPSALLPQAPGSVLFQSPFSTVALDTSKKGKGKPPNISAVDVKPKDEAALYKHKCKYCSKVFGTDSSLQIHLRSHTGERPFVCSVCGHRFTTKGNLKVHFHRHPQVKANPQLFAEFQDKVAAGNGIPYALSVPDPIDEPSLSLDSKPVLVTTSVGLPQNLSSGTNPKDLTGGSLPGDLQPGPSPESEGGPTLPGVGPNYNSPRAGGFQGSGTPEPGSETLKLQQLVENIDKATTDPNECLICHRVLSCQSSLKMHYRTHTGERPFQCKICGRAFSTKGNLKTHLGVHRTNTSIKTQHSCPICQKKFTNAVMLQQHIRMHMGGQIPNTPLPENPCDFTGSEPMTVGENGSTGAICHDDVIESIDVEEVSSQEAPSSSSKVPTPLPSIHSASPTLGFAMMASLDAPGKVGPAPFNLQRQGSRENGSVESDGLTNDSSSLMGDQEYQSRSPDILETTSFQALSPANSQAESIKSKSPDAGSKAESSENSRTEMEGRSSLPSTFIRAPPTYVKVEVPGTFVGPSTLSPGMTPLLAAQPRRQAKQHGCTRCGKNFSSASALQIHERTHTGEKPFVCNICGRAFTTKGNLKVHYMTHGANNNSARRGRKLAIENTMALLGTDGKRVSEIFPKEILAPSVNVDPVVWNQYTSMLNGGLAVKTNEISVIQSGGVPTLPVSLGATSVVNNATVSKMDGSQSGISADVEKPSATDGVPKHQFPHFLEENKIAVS
Technique: universal PBM
Molecule type: double-stranded DNA, one strand shown
Matrix: in vitro
Concentration: 600 nM
Notes: 8-mer, flanks averaged, mean of replicates
Reading: higher = stronger binding
For `CTCGACAA`, the E-score was 0.082.
The E-score of `GTCCCTCA` is reported as -0.115.
`CGATTTTC` has an E-score of 0.133.
`AAGATAAC` gave an E-score of 0.177.
With `ACCCTTGG` the E-score was -0.208.

Series 3
Target: Fragile X messenger ribonucleoprotein 1, C-terminal low-complexity region (Fmr1, Mus musculus, UniProt P35922)
Technique: RNA Bind-n-Seq
Molecule type: RNA
Matrix: in vitro
Concentration: 200 nM
Notes: whole 134-nt RNA, ends assumed
With: 150 mM KCl
Baseline: input library
Reading: higher = stronger binding
For `GGGAGUUCUACAGUCCGACGAUCUAACUUUAGAGGAGGAUCUGAUCGAUAUGGCAGUGGACGUGGAUUUGGGGAUGGCUAUAAUGGGUAUGGAGGAGGACCUGGAGGUGGCAAUGGAAUUCUCGGGUGUCAAGG`, the log2 enrichment was 0.444.
`GGGAGUUCUACAGUCCGACGAUCCGCAGAAGUCGCGUGUCUAGGUGAGUCGCGGUGGGUCCUCGCUUGCAGUUCAGCGACCACGGUGGGUACCGUUUUUGCGAGGAUUGUUUGUGGAAUUCUCGGGUGUCAAGG` gave a log2 enrichment of -1.59.
With `GGGAGUUCUACAGUCCGACGAUCCACAGACAACACGCACCCACACAGACACAGAGGGAAGGGGUUGGGAUGGGGACAGGGUGCACAGCAGGGCGGGGUAGGACCCCACCCCCUUGGAAUUCUCGGGUGUCAAGG` the log2 enrichment was 1.36.
With `GGGAGUUCUACAGUCCGACGAUCACCAUGCAGGUGGGCAUCUUUGGGAAGUGGGGCAAGGGGGGGAUAGGGAGGGGGGUAACACUUUGGGAACAGGUGGUCCCAGGUCGCUUCUGGAAUUCUCGGGUGUCAAGG` the log2 enrichment was 0.907.

Single results of other studies
`PhoQ, residues 284 288 289 292 302 303 TVTVVA` gave a fold induction of 0.834 (PhoP, residues 12 14 15 18 19 DLLYY (Escherichia coli, UniProt P23836); Sort-seq, measured: YFP reporter; E. coli; PhoQ-PhoP variant library, with: 10 µM Mg2+; baseline: high Mg2+ state, higher = stronger signaling).

Repeated from above (series 3):
With `GGGAGUUCUACAGUCCGACGAUCCACAGACAACACGCACCCACACAGACACAGAGGGAAGGGGUUGGGAUGGGGACAGGGUGCACAGCAGGGCGGGGUAGGACCCCACCCCCUUGGAAUUCUCGGGUGUCAAGG` the log2 enrichment was 1.36.
